Published values pooled from the literature.
Lines come from different studies, so protocols differ.

`COCCCCn1c(C(=O)N(CC(C)C)[C@@H]2CNC[C@H](C(=O)N3CCOCC3)C2)nc2ccccc21` gave an AUC(0-tau) of 4940 ng·h/mL (human, elderly, plasma; oral, 80 mg once daily, day 1, mean).
With `Nc1ccn([C@@H]2O[C@H](CO)[C@@H](O)C2(F)F)c(=O)n1` the AUC(0-tau) was 5950 ng·h/mL (human, plasma; intravenous, 750 mg/m2, cycle 1 day 1, added: lonafarnib 150 mg twice daily).
For `Cc1ccc(NC(=O)c2ccc(CN3CCN(C)CC3)cc2)cc1Nc1nccc(-c2cncc(-c3oncc3C)c2)n1`, the AUC(0-tau) was 87200 ng·h/mL (healthy volunteers, plasma; oral, 200 mg once daily, day 1, 7-day dosing, mean).
The AUC(0-tau) of `Nc1cc(F)ccc1NC(=O)c1ccc(CNC(=O)/C=C/c2cccnc2)cc1` is reported as 4870 ng·h/mL (Japanese patients, plasma; oral, 30 mg twice weekly, cycle 1 day 25).
`O=C(O)Cc1ccccc1Nc1c(Cl)cccc1Cl` gave an EC20 of > 800 µM (mitochondrial swelling; BALB/cByJ female mouse liver mitochondria; 30 min, added: succinate + rotenone; reference: CaCl2 maximal swelling).
With `C[C@@H](N)c1cc(Cl)ccc1Cn1c(=S)[nH]c(=O)c2[nH]ccc21` the AUC(0-tau) was 0.239 µM·h (healthy Chinese volunteers, plasma; oral, 5 mg once daily, day 1).
With `CCOC(=O)c1ccc(O)cc1` the EC20 was > 400 µM (cytochrome c release, ELISA; BALB/cByJ female mouse liver mitochondria; 30 min; reference: alamethicin maximal release).
`C=C(C)[C@@H]1CC[C@]2(NCCN3CCS(=O)(=O)CC3)CC[C@]3(C)[C@H](CC[C@@H]4[C@@]5(C)CC=C(C6=CC[C@@](CF)(C(=O)O)CC6)C(C)(C)[C@@H]5CC[C@]43C)[C@@H]12` gave an AUC(0-tau) of 11800 ng·h/mL (LC-MS/MS; HIV-1-infected treatment-naive adults, plasma; oral, 80 mg once daily, day 7, monotherapy).
The AUC(0-tau) of `O=c1[nH]c(=O)c(Cc2cccc(C(F)(F)F)c2)c([C@H]2CC[C@H](c3ccccc3)CC2)[nH]1` is reported as 1940 ng·h/mL (human, plasma; oral, 150 mg once daily, day 14, geometric mean).
With `C=C(C)[C@@H]1CC[C@]2(NCCN3CCS(=O)(=O)CC3)CC[C@]3(C)[C@H](CC[C@@H]4[C@@]5(C)CC=C(C6=CC[C@@](CF)(C(=O)O)CC6)C(C)(C)[C@@H]5CC[C@]43C)[C@@H]12` the AUC(0-tau) was 17500 ng·h/mL (human; oral, 100 mg once daily, day 14, multiple ascending dose).

Excerpt of the above:
With `Nc1ccn([C@@H]2O[C@H](CO)[C@@H](O)C2(F)F)c(=O)n1` the AUC(0-tau) was 5950 ng·h/mL (human, plasma; intravenous, 750 mg/m2, cycle 1 day 1, added: lonafarnib 150 mg twice daily).
